Results of several laboratories.
Lines come from different studies, so protocols differ. ± gives the spread as reported.

The degradation of `CC(C)C[C@H](NC(=O)[C@H](Cc1ccc(O)cc1)NC(=O)[C@H](CC(N)=O)NC(=O)[C@H](CO)NC(=O)CNC(=O)[C@H](Cc1ccc(O)cc1)NC(=O)[C@H](CC(=O)O)NC(=O)CNC(=O)[C@H](Cc1ccc(O)cc1)NC(=O)[C@H](Cc1ccccc1)NC(=O)[C@@H]1CCCN1C(=O)[C@H](Cc1ccccc1)NC(=O)[C@H](CCC(=O)O)NC(=O)[C@H](CCCNC(=N)N)NC(=O)[C@H](Cc1c[nH]cn1)NC(=O)[C@H](CO)NC(=O)[C@H](Cc1c[nH]cn1)NC(=O)[C@H](Cc1c[nH]cn1)NC(=O)[C@H](CCCCN)NC(=O)[C@H](CCC(=O)O)NC(=O)[C@H](Cc1c[nH]cn1)NC(=O)[C@H](Cc1ccccc1)NC(=O)[C@H](CCCCN)NC(=O)[C@H](CCCNC(=N)N)NC(=O)[C@H](CCCNC(=N)N)NC(=O)[C@H](Cc1ccc(O)cc1)NC(=O)CNC(=O)[C@H](Cc1c[nH]cn1)NC(=O)[C@H](Cc1c[nH]cn1)NC(=O)[C@H](CCCNC(=N)N)NC(=O)[C@H](CCCCN)NC(=O)[C@H](CCC(=O)O)NC(=O)[C@H](Cc1c[nH]cn1)NC(=O)[C@H](CO)NC(=O)[C@@H](N)CC(=O)O)C(=O)N[C@@H](Cc1ccc(O)cc1)C(=O)N[C@@H](CC(=O)O)C(=O)N[C@@H](CC(N)=O)C(=O)O` is reported as 77.5% (PAGE band density; whole saliva supernatant G1, diluted 1:10; 100 µg/mL, 48 h, 37 °C).
`S=C(NCCCc1c[nH]cn1)NCCCN(Cc1ccc(Cl)c(Cl)c1)c1ccc(Br)cn1` has a concentration of 2390 ng/mL (male C57BL/6 mouse, plasma; intraperitoneal, 30 mg/kg, 4 h).
The AUC(0-last) of `COc1cccc(N2CCN(C3=Nc4c(F)cccc4[C@H](CC(=O)O)N3c3cc(C(F)(F)F)ccc3OC)CC2)c1` is reported as 13600 ± 3800 ng·h/mL (UHPLC-MS/MS; healthy women, plasma; intravenous infusion, 120 mg single dose, 30 min infusion, HPβCD formulation).
`Oc1cc(O)cc(O)c1` has an EC20 of over 400 µM (cytochrome c release, ELISA; BALB/cByJ female mouse liver mitochondria; 30 min; baseline: alamethicin maximal release).
With `CNC(=O)c1ccc(-c2cnc3ncc(Cc4ccc5ncccc5c4)n3n2)cc1F` the Vz/F (mean) was 263 L (human, severe hepatic impairment (Child-Pugh C), plasma; oral, 200 mg single dose).
The relaxivity r1 of `O=C([O-])CN1CCN(CC(=O)[O-])CCN(CC(=O)O)CCN(CC(=O)[O-])CC1.[Gd+3]` is reported as 3.2 mM⁻¹ s⁻¹ (phosphate buffer; pH 7.4, 37 °C, 60 MHz, 1.5 T).
The EC20 of `CC[C@H]1OC(=O)[C@H](C)[C@@H](O[C@H]2C[C@@](C)(OC)[C@@H](O)[C@H](C)O2)[C@H](C)[C@@H](O[C@@H]2O[C@H](C)C[C@H](N(C)C)[C@H]2O)[C@](C)(O)C[C@@H](C)C(=O)[C@H](C)[C@@H](O)[C@]1(C)O` is reported as over 400 µM (mitochondrial swelling; BALB/cByJ female mouse liver mitochondria; 30 min, with: succinate + rotenone; baseline: CaCl2 maximal swelling).
The bioavailability of `Cc1cc(C(=O)NC(C)(C)COc2cccc3c2C(N)=NS(=O)(=O)N3)cc(C)n1` is reported as 0.36% (male Sprague-Dawley rat, plasma; oral, 10 mg/kg, single dose).
With `Sc1ncnc2nc[nH]c12` the EC20 was over 400 µM (mitochondrial swelling; BALB/cByJ female mouse liver mitochondria; 30 min, with: succinate + rotenone; baseline: CaCl2 maximal swelling).
For `CCN1CCN(c2cc3c(cc2F)c(=O)c(C(=O)O)cn3C2CC2)CC1`, the central Vd was 2.11 L (broiler chickens Ross, plasma; intravenous and oral, population PK typical value).
For `CC(CC(=O)O)C(=O)O` (stereo not drawn), “free concentration ratio” read 91 (human hemodialysis patients, plasma ultrafiltrate; pre-treatment; baseline: hemodialysis over normal subjects).
`COc1cccc(CN)c1O` has an elimination half-life of 0.6 h (C57BL/6N mouse, male, spleen; intraperitoneal, 200 mg/kg).
The AUC(0-168 h) of `C#C[C@]1(CO)O[C@@H](n2cnc3c(N)nc(F)nc32)C[C@@H]1O` is reported as 3.98 µM·h (human, plasma; oral, 30 mg once weekly, week 3).
The clearance of `Polymyxin B` is reported as 17.2 ± 8.5 mL/min (plasma; 5 µg/mL, blood flow 100 mL/min, dialysate flow 4800 mL/h).
For `Cc1nc(Nc2ncc(C(=O)Nc3c(C)cccc3Cl)s2)cc(N2CCN(CCO)CC2)n1`, the EC20 was 127 µM (mitochondrial swelling; BALB/cByJ female mouse liver mitochondria; 30 min, with: succinate + rotenone; baseline: CaCl2 maximal swelling).
`Cn1c(=O)c2c(ncn2C)n(C)c1=O` gave a mean concentration of 1350 ± 612 nM (human, fasted baseline, cerebrospinal fluid).
The AUC(0-t) of `CS(=O)(=O)c1ccc(-c2cnc(N)c(-c3ccc(C(F)(F)F)nc3)c2)cc1` is reported as 13200 ng·h/mL (pregnant female Sprague-Dawley rat, plasma; oral, 3 mg/kg/day, gestation day 17).
The half-life of `O=C(C1CC1)n1nc(C(F)(F)F)c2cnccc21` is reported as over 4 h (chemical stability; aqueous buffer; pH 7.4).
The MRT of `CO/N=C1\C[C@]2(C[C@@H]3C[C@@H](C/C=C(\C)C[C@@H](C)/C=C/C=C4\CO[C@@H]5[C@H](O)C(C)=C[C@@H](C(=O)O3)[C@]45O)O2)O[C@H](/C(C)=C/C(C)C)[C@H]1C` is reported as 141 ± 18.2 h (HPLC, non-compartmental; Corriedale lambs, parasitized, plasma; subcutaneous, 0.2 mg/kg).
With `O=C(c1cccnc1-c1ccncc1)N1CCC(O)(Cc2ccccc2)CC1` the Vd/F was 732 L (human, plasma; oral, 300 mg, multiple doses, once daily, healthy volunteers).
`COc1cc2c(Nc3ccc(Br)cc3F)ncnc2cc1OCC1CCN(C)CC1`: “elimination rate constant” 0.43 h⁻¹ (male FVB mice, plasma; intravenous, 5 mg/kg).
Under “intact radiolabelled complex”, `O=C([O-])CN1CCN(CC(=O)[O-])CCN(CC(=O)[O-])CCN(CC(=O)[O-])CC1.[67Ga+3]` is recorded as 95.5 ± 0.4% (RP-TLC; murine plasma; 24 h, 37 °C, 5% CO2).
`C#Cc1cccc(Nc2ncnc3cc(OCCOC)c(OCCOC)cc23)c1` has a Cmin of 521 ± 169 ng/mL (NOD/SCID mouse, male, whole blood or plasma; oral, 12.5 mg/kg every 12 h, 12 h, day 1).
`CS(=O)(=O)n1cc2c(n1)CN([C@H]1CO[C@H](c3cc(F)ccc3F)[C@@H](N)C1)C2` has an AUC(0-24h) of 16.4 µM·h (healthy male human, plasma; oral, 50 mg, fasted, geometric mean).
With `Cc1nc2cccc(OCC(C)(C)C(=O)NC(C)C)c2c(N)c1C(=O)O` the Cmax was 46.8 ng/mL (male Sprague-Dawley rat, plasma; dietary, 30 mg/kg/day, day 90).
For `O=C(O)Cc1ccccc1Nc1c(Cl)cccc1Cl`, the EC20 was over 200 µM (cytochrome c release, ELISA; BALB/cByJ female mouse liver mitochondria; 30 min; baseline: alamethicin maximal release).
The Vd/F of `COc1cccc(-c2ccc(NC(=O)C3=C(C(=O)O)CCC3)c(F)c2)c1` is reported as 10.2 L (male human, plasma; oral, 40 mg, multiple doses, once daily).
Under “absorption rate constant”, `colistin B methanesulfonate` is recorded as 1.2 ± 0.253 h⁻¹ (one-compartment PK model; rat; i.p., 20 mg/kg colistin base activity).
`O=C(CC1Cc2ccccc2C1)N[C@H](CN1CCCC1)[C@H](O)c1ccc(OC(F)(F)F)cc1` gave a Vd of 7.55 L/kg (CD-1 mouse, plasma; intravenous).
Under “concentration at 24 h”, `Cn1c(Cn2ccc(C(F)(F)F)c(Oc3cc(Cl)cc(C#N)c3)c2=O)n[nH]c1=O` is recorded as 866 nM (human, plasma; oral, 100 mg once daily, 24 h, geometric mean, with: islatravir 2.25 mg once daily).
`CC(C)[C@H](NC(=O)[C@@H]1CCCN1C(=O)[C@H](CCCNC(=N)N)NC(=O)[C@H](CS)NC(=O)[C@H](Cc1c[nH]c2ccccc12)NC(=O)[C@H](CCCNC(=N)N)NC(=O)[C@@H](Cc1ccccc1)NC(=O)[C@H](Cc1c[nH]cn1)NC(=O)[C@H](CCC(=O)O)NC(=O)[C@H](CS)NC(=O)[C@H](CS)NC(=O)[C@H](CCCCN)NC(=O)[C@@H]1CC(=O)N[C@@H](CCCNC(=N)N)C(=O)N[C@@H](C(C)C)C(=O)N[C@@H](CC(=O)O)C(=O)N[C@H](Cc2ccc(O)cc2)C(=O)N1)C(N)=O` [technetium-99m labelled] gave an uptake ratio of 0.02 (C57 mouse, female, B16/F1 melanoma; intravenous, 2 h, with: NDP-MSH 10 µg co-injected; baseline: tumour over kidneys).
For `CC1=C(/C=C/C(C)=C/C=C/C(C)=C/C(=O)Nc2ccc(O)cc2)C(C)(C)CCC1`, the Km was 23.9 µM (substrate, item: 4-oxo metabolite formation; pooled human liver microsomes; 60 min).
The AUC(0-inf) of `Cn1c(-c2ccc(C(N)=O)cc2F)nnc1C(C)(C)Oc1c(F)cc(Cl)cc1F` is reported as 3040 ng·h/mL (elderly non-Japanese subjects, plasma; oral, 20 mg single dose, day 1, median).
For `Nc1cc(-c2ccccc2)ccc1Cn1cncc1CNc1ccc(Cl)c(-c2ccccc2)c1`, the AUC(0-5 h) was 6700 ng·h/mL (female BALB/c mice, plasma; oral, 50 mg/kg single dose).
`CC(C)(C)NC(=O)[C@@H]1C[C@@H]2CCCC[C@@H]2CN1C[C@@H](O)[C@H](Cc1ccccc1)NC(=O)[C@H](CC(N)=O)NC(=O)c1ccc2ccccc2n1` has an EC20 of over 400 µM (cytochrome c release, ELISA; BALB/cByJ female mouse liver mitochondria; 30 min; baseline: alamethicin maximal release).
`CN[C@H](CC(C)C)C(=O)N[C@H]1C(=O)N[C@@H](CC(N)=O)C(=O)N[C@H]2C(=O)N[C@H]3C(=O)N[C@H](C(=O)N[C@H](C(=O)O)c4cc(O)cc(O)c4-c4cc3ccc4O)[C@H](O)c3ccc(c(Cl)c3)Oc3cc2cc(c3O[C@@H]2O[C@H](CO)[C@@H](O)[C@H](O)[C@H]2O[C@H]2C[C@](C)(N)[C@H](O)[C@H](C)O2)Oc2ccc(cc2Cl)[C@H]1O` — result for “serum drug concentration”: “decreased” (New Zealand White rabbit; intraosseous, 30 mg/kg; baseline: intravenous dosing).

For quick reference, copied from above:
`Oc1cc(O)cc(O)c1` has an EC20 of over 400 µM (cytochrome c release, ELISA; BALB/cByJ female mouse liver mitochondria; 30 min; baseline: alamethicin maximal release).
With `CNC(=O)c1ccc(-c2cnc3ncc(Cc4ccc5ncccc5c4)n3n2)cc1F` the Vz/F (mean) was 263 L (human, severe hepatic impairment (Child-Pugh C), plasma; oral, 200 mg single dose).
